Experimental data pooled from the literature.
Numbered parts are unrelated; each lists some results of a single study. Substitutions count along the parent as printed.

Sample 1
Target: CCNF, cyclin fold, Cln2 fusion (human)
Technique: yeast growth competition, sequencing
Matrix: yeast
Setting: strong parent motif
Reference: not given
Reading: higher = stronger binding
Starting sequence: E2F1 docking peptide (human); PPVKRRLDLETDH; partner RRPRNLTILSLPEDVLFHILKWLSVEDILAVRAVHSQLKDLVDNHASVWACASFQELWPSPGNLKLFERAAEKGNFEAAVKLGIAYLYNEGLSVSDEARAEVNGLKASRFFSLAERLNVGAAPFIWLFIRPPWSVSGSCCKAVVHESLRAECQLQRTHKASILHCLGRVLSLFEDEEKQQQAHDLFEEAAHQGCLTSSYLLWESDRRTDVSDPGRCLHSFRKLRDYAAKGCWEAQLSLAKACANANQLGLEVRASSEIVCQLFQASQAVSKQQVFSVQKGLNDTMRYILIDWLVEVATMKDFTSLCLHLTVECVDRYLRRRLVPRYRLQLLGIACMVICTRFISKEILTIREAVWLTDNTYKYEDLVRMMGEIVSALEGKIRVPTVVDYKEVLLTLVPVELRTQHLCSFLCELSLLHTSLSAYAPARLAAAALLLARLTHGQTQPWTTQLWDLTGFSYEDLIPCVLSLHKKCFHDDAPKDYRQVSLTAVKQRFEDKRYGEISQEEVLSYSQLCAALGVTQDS
Variant	normalised enrichment score
TPVKRRLDLETDH [P1T]	4.05
PPVKRKLDLETDH [R6K]	5.29
PPVKDRLDLETDH [R5D]	-0.605
PPVKRRWDLETDH [L7W]	0.578
PPVKRRLDLITDH [E10I]	6.24
PPVKRELDLETDH [R6E]	1.64
WPVKRRLDLETDH [P1W]	7.5
PPVKRRLDLETDA [H13A]	6.57
PPVKRRLDLETYH [D12Y]	9.52
PPVKRRLALETDH [D8A]	5.79
PPVKRRLDLETKH [D12K]	6.52
PPVKRRLKLETDH [D8K]	7.19
PPVKRYLDLETDH [R6Y]	3.71
KPVKRRLDLETDH [P1K]	6.94
PPVKRRLLLETDH [D8L]	7.01
PPVKRRRDLETDH [L7R]	0.0541
PPVKRRLDLWTDH [E10W]	7.47
PPVKRRLFLETDH [D8F]	9
PPVKRRLDLETDT [H13T]	8.44
APVKRRLDLETDH [P1A]	6.23
PPVKRPLDLETDH [R6P]	1.2
PPVKRRLDLETDF [H13F]	8.25
PPVKRRLDLGTDH [E10G]	7.36
PPVKRDLDLETDH [R6D]	-0.954
PPVKRRLDFETDH [L9F]	7.74

Sample 2
Target: RNA binding protein fox-1 homolog 2, RRM domain, GST-SBP tag (RBFOX2, Homo sapiens, UniProt O43251-10, residues 100-194)
Technique: RNA Bind-n-Seq
Molecule type: RNA
Matrix: in vitro
Concentration: 365 nM
Setting: natural RNA segment, single round, ends assumed
Reference: no-protein control
Reading: higher = stronger binding
Shared flanks, not repeated: GGGAGUUCUACAGUCCGACGAUC … UGGAAUUCUCGGGUGCCAA
Residues (chain): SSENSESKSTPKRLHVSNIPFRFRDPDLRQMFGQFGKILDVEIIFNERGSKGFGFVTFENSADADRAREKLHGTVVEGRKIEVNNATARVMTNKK
Sequence	RBNS enrichment (R)
GACAAACUUGGAUCAAGAGGACCCAUUUGGGUGAGGGACCAGGUGGUUUCCAAUCCAGUGUGGACAGCAAAUGAAUGCUAUGCAGGCAUGCAGAUGAGAUCUGUACUAUA	0.537
CCGCAGCUCAGCUGCACUGCGUUCCGAGGUGAAGUCUUGCCCCUGAAUUUUGCAAAAUGGGAAAGUGGGCGCUUGCCCAAGGGCCAGGCUGCAUGGAUUCUCACAUCAGA	0.383
AAUAUGUCCCUUGCACACCACCCCUGAAGCACAUGGCAGUAGGAAACAGCAUAGGAUUGUAUGUGGGAGGUGGAUAGGUCGGUGAUGUGUGGAGCGGAAAAGCAGGUUGG	1.9
UCCAUCUCAGGAGGCACGGAGGGAAAAGAUGUAUGUAUUGAAGUUUUUUUUUUUUUUUAAAUGUGACUUUUUUUAAAUCAAUGUUCAAACUAAUAAAUAUUUUUUUAUGA	1.29
CCUUGCAGAGCUCAUGGUGACCAUUGGUUAAAGCCCAGAAGUUCUGUGUAAGCAUUGAACACUGUCUUAGGAAAGGCCAUGAGGCCAUAUUUCUGUCAACCCUGGACCAA	0.252
AUACAGCACUAGUCAAGACAAUGUGAUAUCCUUCCACCUUCCCCCUUUAUUUCAAGAAAUGCAUAGAUAAGGGAGAAGAAAGGCUUCAAGGAUUCAUGGUUAAGAAGUGU	0.686
AAAGGAAAGCACAGGCUAAGCAGUUGAAGGUUCCCCACCAUUCAGUGAGAGCAGAACCCCCAUUCCCCAGCCUCUGCUGGUAGCAUGUCGCAGUUUCCAUGUGUUUCAGG	1.63
CCAGCUUGGGCAACGUAGUGAGACCCCUAUCUCUACAAAAAAUAAAAAAAUUAGCUGGGUGUGAUGGCACACACCUGUUGUCCCAGCUACUCAAGAAGCUGAGAUGGGAG	0.375
UUUGAGUGAAUGGCAGGAAAGGGCCAUCUCCAUUGAGAUGAUUAAGUGAACCAAACUAGUUCUCAGAAUUCUACAGAGAAGGAGGGAAUCAGACUGAGGAAGCUGUGACA	0.247
AUAGCCAUGCUGGUGGCCUUCUGAAUCACUGCAUGGAUGUCCCAGGAGGCAGCUCUCCCCACACAGCAGCACAGCCAUCACAGGAUUCCUUGUGUAGAAAUGAUUCCCAG	0.522
UAUCCCAGGCCUGUGCGUGGUGGAAAAAGCCAGCCUUGGCCCUGCAGCCUCCACCUCGCCGCUGGGGGACCAACAGGUUGCUUACAGCUUUGCACCCCGGCAUCAGCACA	7.89
GACGAGCCCAUGUUUCUGCAUGGAUUUCCCAUGGAAGUCCUGUCCUGCUACAGAGGGGAAGAAAGUGUACCCUCCAAUGUGAUAAAUCUUCUGAUGCCCCCAGACUCUUG	0.375

Sample 3
Target: Interferon regulatory factor 5, full length, phosphomimetic (IRF5, Homo sapiens, UniProt Q13568-2, residues 1-514, S451D/S453D/S456D/S462D)
Technique: protein-binding microarray
Molecule type: double-stranded DNA, one strand shown
Matrix: in vitro
Concentration: 940 nM top
Setting: 60-bp whole probe
Added: salmon DNA 0.4 mg/ml
Reference: random background probes
Reading: higher = stronger binding
Shared flanks, not repeated: GCCTAGCAC … GTCTTGATTCGCTTGACGCTGCTG
Sequence	fitted relative affinity [z-score]
TTAGGTTTCCTTCTCATTTAGTGCTAG	2.1
TTAGGTTTCGGGTATCAGTTAGTGCTA	10.9
TCAGCTATCACTATTCTACTGTGCTAG	0.51
GTCCCCTGTCGGGAGGTCAGGTGCTAG	-0.47
TTAGATTTCAGTTCCCATTAGTGCTAG	1.32
GATGTTTTTCATTTTTTTTCGTGCTAG	1.56
GACGGACTGGACACTGGAGACGTGCTA	-0.661
TTAGGACAGCTTCTCCTTTAGTGCTAG	-0.514
GACGGGATCCTACTGCTGACGTGCTAG	-0.457
TTAGGTTTCGACACTGTGTTAGTGCTA	8.75
GACGGTTTCGACTTTCGTGACGTGCTA	6.54
GACGGACTGGGGATCGGGACGTGCTAG	-0.0694
TGAGTCTTCCCTTTTAAGTTGTGCTAG	0.86
GACGGTTGCGGTTCCGGGACGTGCTAG	1.54
GACGGTTTCGGGACTGGGGAAGTGCTA	6.9
TAAGAAAAGCCACCAGGACCGTGCTAG	-0.716
TTTGATATCAGTATCGATTAGTGCTAG	5.01
TAGTTTTCATTTTCTGAATGTGTGCTA	2.33

Sample 4
Target: Sal-like protein 4, full length isoform B (SALL4, Homo sapiens, UniProt Q9UJQ4-2, residues 1-616)
Technique: universal PBM
Molecule type: double-stranded DNA, one strand shown
Matrix: in vitro
Concentration: not given
Setting: 8-mer, flanks averaged, mean of replicates
Reading: higher = stronger binding
Sequence	E-score
AGGCGGTG	-0.311
CCTACCAA	0.0179
CCTAATGA	0.0588
ATGCCTCC	-0.148
ACCTCCCA	-0.194
CCACTATA	0.201
AACGCAGC	-0.155
AGTGATAT	0.227
GGAACGAC	-0.161
GTCATCGA	0.0622
AGAAGTCT	0.0223
AATGTTTG	0.185
CGCCAGGA	-0.183
GGTAGGAA	-0.0391
ACCCTCTG	-0.13
GCCTGTCA	-0.156
CCCCATCA	-0.0934
TCTCAGAA	0.117
ACGCGATC	-0.0737
AAGTCCAG	0.0956
AATCTTAT	0.277
ATACCAAC	0.24
ACGTAAGT	0.108
AAGCTACA	0.108
ACCTCACC	-0.136

Sample 5
Target: FOS, bZIP domain (human)
Technique: DHFR protein complementation
Matrix: yeast
Setting: single substitutions, most at no-binding floor
Reference: wild-type JUN-FOS pair
Reading: higher = stronger binding
Starting sequence: JUN, bZIP domain (human); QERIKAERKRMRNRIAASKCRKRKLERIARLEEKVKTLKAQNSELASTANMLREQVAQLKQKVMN; partner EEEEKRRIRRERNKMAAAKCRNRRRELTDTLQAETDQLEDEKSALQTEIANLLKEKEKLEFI
Variant	binding fitness [natural log]
S43M	0.0134
K36Q	-0.0566
K39A	-0.649
L45Q	-1.35
L38D	-1.21
Q55Y	-0.207
A29F	-0.245
E33S	-0.217
T48K	0.0408
A29V	-0.347
E32T	-0.0638
S47G	-0.0628
E44Y	-0.349
L52I	-0.297

Excerpt of the above (sample 1):
Variant	normalised enrichment score
PPVKRRLLLETDH [D8L]	7.01
PPVKRRRDLETDH [L7R]	0.0541
PPVKRRLDLWTDH [E10W]	7.47
PPVKRRLFLETDH [D8F]	9
PPVKRRLDLETDT [H13T]	8.44
APVKRRLDLETDH [P1A]	6.23
